# Experimental data of several laboratories.
# Compare with care: the assays were run in different laboratories. Several values in a cell are separate wells, animals, samples, runs or records.
Compound,cell line,test,system,setting,scale,measurement,result
Cc1cc(Nc2ncc(Cl)c(Nc3ccccc3S(=O)(=O)C(C)C)n2)c(OC(C)C)cc1C1CCNCC1,CLB-BAR,"LC-MS/MS phosphoproteomics, refers to: A2M phosphorylation",,"200 nM, 60 min",relative to: untreated,log2 fold change,1
CSc1cc(Oc2ccnc3[nH]c(=O)cnc23)ccc1NC(=O)Nc1cc(C(C)(C)C)nn1-c1ccccc1,patient-derived cell line,"RPPA, refers to: phosphorylated ribosomal protein S6",human,"1 µM, 4 h",relative to: DMSO,phospho ratio,0.4
COc1cnc2cccc(N3CCc4c(cc(Cn5ccnc5C)cc4-c4cn(C)nc4C(F)(F)F)C3=O)c2c1,LMSU,cell growth,,120 h,,EC50,> 30 µM
Cn1cc(-c2ccc(-c3cncc(Cl)c3N3CCC4(CCNC4=O)CC3)cc2)cn1,COLO 205,"gene expression, microarray, refers to: DEFB1 mRNA",,"concentration not given, 2 h",relative to: untreated cells,log2 fold change,3.22
CCn1cc(-c2cc(Cn3ccoc3=N)cc3c2CCN([C@@H](C)c2cc(OC)ccn2)C3=O)c(C(F)(F)F)n1,GSU,cell growth,,120 h,,EC50,0.0356 µM
Cc1ccc(CNc2nc(Cl)nc3nc[nH]c23)o1,HeLa,"splicing reporter, refers to: GLA",,"10 µM, 18 h",,GFP/RFP ratio,0.48
COc1cc(C[C@H]2COC(=O)[C@@H]2Cc2ccc(O)c(OC)c2)ccc1O,neuroblastoma M2 (−),western blot,,IC50,relative to: untreated,PARP cleavage,increased
CCNc1nc(Nc2ccc(F)c(Cl)c2)c2ccccc2n1,Vero,MTT,,500 µg/mL,,cytotoxicity,93.1%
O=C(/C=C/C=C/C=C/C1CCCCC1)NC1=C[C@@](O)(/C=C/C=C/C=C/C(=O)NC2=C(O)CCC2=O)[C@@H]2O[C@@H]2C1=O,sngm,"cell growth, inhibitor, CellTiter-Glo luminescence",,78 h,relative to: day 0 cell count,GI50,18.8 µM
CCCCS(=N)(=O)CCC(N)C(=O)O (stereo not drawn),OVCAR-5,"LC-ESI-MS/MS, refers to: glutathione",,"40 µM, 12 h",relative to: untreated,remaining GSH,2.1%
CCn1cc(-c2cc(Cn3ccnc3)cc3c2CCN([C@H](c2cc(OC)ccn2)C2CC2)C3=O)c(C(F)(F)F)n1,HEC108,cell growth,,120 h,,EC50,> 30 µM
Nc1ncnc2c1ncn2[C@@H]1O[C@H](CO)[C@@H](O)[C@H]1O,activated human T cells,refers to: carbamoyl aspartate,,30 µM,relative to: DMSO,log2 fold change,7.1 and 7.6 and 8.1
Br.CN(C)c1nc(=Nc2cccc(Cl)c2)ss1,LDR,"silenced CMV-GFP reporter derepression, qHTS",,,,efficacy,118%
O=P1(C2CCCCC2)CCCCC1,SW480,annexin V/PI flow cytometry,,"IC50, 72 h",,early apoptotic cells,2.55%
Cn1cc(C2=C(c3ccc(Cl)cc3Cl)C(=O)NC2=O)c2ccccc21,primary human cortical neurons,"Western blot, refers to: Tau phospho-Ser199",,"5 µM, 48 h, added: HIV Tat 100 ng/mL and maraviroc 2.5 µM","relative to: Tat-treated cells, decrease",Tau phosphorylation,12 fold

# A few entries again:
Compound,cell line,test,system,setting,scale,measurement,result
CCn1cc(-c2cc(Cn3ccnc3)cc3c2CCN([C@H](c2cc(OC)ccn2)C2CC2)C3=O)c(C(F)(F)F)n1,HEC108,cell growth,,120 h,,EC50,> 30 µM
Nc1ncnc2c1ncn2[C@@H]1O[C@H](CO)[C@@H](O)[C@H]1O,activated human T cells,refers to: carbamoyl aspartate,,30 µM,relative to: DMSO,log2 fold change,7.1 and 7.6 and 8.1
